# Measured values collected from several papers.
# Each numbered part is a random draw from the data of one study; scales do not carry over between parts.

# Sample 1
# Target: Histone acetyltransferase KAT6A, winged helix 1, GST fusion (KAT6A, Homo sapiens, UniProt Q92794, residues 1-85)
# Technique: protein binding microarray
# Molecule type: double-stranded DNA, one strand shown
# Sample: in vitro
# Concentration: not given
# Setting: 8-mer, flanks averaged, mean of 2 arrays, mostly near background
# Baseline: not given
# Reading: higher = stronger binding
# Residues (chain): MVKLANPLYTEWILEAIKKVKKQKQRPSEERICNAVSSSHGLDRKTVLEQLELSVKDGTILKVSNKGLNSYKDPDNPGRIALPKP
Sequence,E-score
AGCATTAA,-0.178
GGCGATTA,0.228
GACAATTA,0.0111
GTGTACAA,0.0352
ACAATCAT,-0.171
CGGAATAC,0.113
CATAAGCC,0.0335
AGAGTACG,0.0738
ACAGCGCA,0.222
CTTACTGA,-0.0576
TCCAGCAA,-0.337
CTCACCCC,0.0188
GTCAGCTA,-0.0734
AGCCTAGC,0.0267
CTGTCGTA,-0.113
AGATAGAC,-0.181
CTTCTTGA,-0.12
TCGTCGAA,-0.206
CCATTGCG,0.149
AGAAAGCA,-0.235
CCGGTCTC,0.0523
AACCGGAC,0.0577

# Sample 2
# Target: Ras GTPase-activating protein-binding protein 1, RRM domain (G3BP1, Homo sapiens, UniProt Q13283)
# UniProt Q13283, sequence (whole entry, looked up): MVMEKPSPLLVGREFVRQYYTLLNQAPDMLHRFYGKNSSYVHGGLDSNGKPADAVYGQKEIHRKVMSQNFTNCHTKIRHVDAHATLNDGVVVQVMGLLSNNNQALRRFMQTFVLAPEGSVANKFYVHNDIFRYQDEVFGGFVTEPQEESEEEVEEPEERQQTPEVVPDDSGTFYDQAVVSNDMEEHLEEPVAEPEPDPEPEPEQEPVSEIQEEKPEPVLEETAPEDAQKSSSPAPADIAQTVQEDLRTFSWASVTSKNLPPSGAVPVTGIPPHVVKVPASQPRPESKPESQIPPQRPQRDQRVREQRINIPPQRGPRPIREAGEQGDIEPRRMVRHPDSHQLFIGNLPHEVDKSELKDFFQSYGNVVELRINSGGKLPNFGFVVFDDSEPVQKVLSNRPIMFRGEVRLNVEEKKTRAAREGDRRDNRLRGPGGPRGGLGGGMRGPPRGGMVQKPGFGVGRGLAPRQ
# Technique: RNA Bind-n-Seq
# Molecule type: RNA
# Sample: in vitro
# Concentration: 1 µM
# Setting: whole 134-nt RNA, ends assumed
# Added: 150 mM KCl
# Baseline: input library
# Reading: higher = stronger binding
# All sequences stand within: GGGAGUUCUACAGUCCGACGAUC … UGGAAUUCUCGGGUGUCAAGG
Sequence,log2 enrichment
ACCAUGCAGGUGGGCAUCUUUGGGAAGUGGGGCAAGGGGGGGAUAGGGAGGGGGGUAACACUUUAGGAACAGGUGGUCCCAGGUCGUUUC,1.24
AGUCCUGUGCUACACAUCGUAUGUACCGAAUCGGGGUUUGGGGUUUGGGGAAAGGGGAAAGUAUUAUGUUACGCCGUUCGGAUCUGCACU,1.73
GUCCUGUGCUACACAUCGUAUGUACCGAAUCAAAUUUUUUUAAACCCCCAAAUUUAAAAAAGUAUUAUGUUACGCCGUUCGGAUCUGCAC,-0.86
UAACUUUAGAGGAGGAUCUGAUGGAUAUGGCAGUGGACGUGGAUUUGGGGAUGGCUAUAAUGGGUAUGGAGGAGGACCUGGAGGUGCCAA,-0.389
UGGGAGGUGGAUUUUGUUUAUUUUUUUAGCUCAUUUCCAGGGGUGGGAAUUUUUUUUUAAUAUGUGUCAUGAAUAAAGUUGUUCUUGAAA,2.25
CUGUGCUACACAUCGUAUGUACCGAAUCAAAUUUUUUUAAACCCCCCCAAACCCCCCCAAAAAAGUAUUAUGUUACGCCGUUCGGAUCUG,-1.06
AAGUCCUGUGCUACACAUCGUAUGUACCGAAUCGGAAAAGGGAAAAGGGAAAAGGGAAAGUAUUAUGUUACGCCGUUCGGAUCUGCACUU,-0.0471
CCUCAAGUCCUGUGCUACACAUCGUAUGUACCGAAUCGGUUUUUGGUGGAGGAAAGUAUUAUGUUACGCCGUUCGGAUCUGCACUUCCAG,-0.188
CUCAAGUCCUGUGCUACACAUCGUAUGUACCGAAUCGGGGCGGGGCGGGGCGGAAAGUAUUAUGUUACGCCGUUCGGAUCUGCACUUCCA,0.0417
CUGUGCUACACAUCGUAUGUACCGAAUCGGGGCCCCCCCGGCCCCCCCGGGGCCCCCCCGGGAAAGUAUUAUGUUACGCCGUUCGGAUCU,-0.56
AGUCCUGUGCUACACAUCGUAUGUACCGAAUCGGGGCCCGGGGCCCGGGGCCCGGGGAAAGUAUUAUGUUACGCCGUUCGGAUCUGCACU,-1.6
AAGUCCUGUGCUACACAUCGUAUGUACCGAAUCGGGGUUUUGGGUUUUGGUUUUGGGAAAGUAUUAUGUUACGCCGUUCGGAUCUGCACU,-0.309
UUUUCAAGGGCCGCUUGAAGAUGCCAUUGAAGAUGAGGAAGAAGAAUGUCCAUCAGAGGAAACAGACAUCAUCUCCAAAGGAGACUUUCC,-0.247
CUUAUGCCUUCCCCACUGGUAUUGAGGGUUUUGAUAAUAAAUUGGUAGGAAAAAAAAGUACCUCCUAGAAGGAAGCCUUCCCCACCAUUU,-0.176

# Sample 3
# Target: Interferon regulatory factor 5, full length, phosphomimetic (IRF5, Homo sapiens, UniProt Q13568-2, residues 1-514, K96S/S451D/S453D/S456D/S462D)
# Technique: protein-binding microarray
# Molecule type: double-stranded DNA, one strand shown
# Sample: in vitro
# Concentration: 250 nM
# Setting: 60-bp whole probe
# Added: salmon DNA 0.4 mg/ml
# Baseline: random background probes
# Reading: higher = stronger binding
# All sequences stand within: GCCTAGCAC … GTCTTGATTCGCTTGACGCTGCTG
Sequence,log fluorescence [z-score]
TTATATCTCAGACTGGATTAGTGCTAG,0.295
GAAGATATCGGGTATCGAGACGTGCTA,2.47
TTAGGTATCGACTATTGGTTAGTGCTA,3.51
CTAGGTCTCGGTATCGGTTAGTGCTAG,4.94
GACGATATCGGGTAGCGAGACGTGCTA,2.06
GGGGCTTGGGAGAGGCATCCGTGCTAG,-0.76
TTAGGTTTCGACTATCGGTTGGTGCTA,8.98
GACGGTTCCCTTTGCCTGACGTGCTAG,0.0874
GACGATATCGGGTATCGAGAAGTGCTA,3.01
GATGATTTCGGGTATCGAGACGTGCTA,5.72
GACGGTTTCCTTTCCCTGAGGTGCTAG,1.01
TAGGTTTTCTGGTTCCCATTGTGCTAG,0.633
TGAGGTATCGGTCTCGGTTAGTGCTAG,4.53
TCAAGTTTCTCCTTTCCACTGTGCTAG,2.38
TCTCATTTCCAATTACCTTTGTGCTAG,1.67
CTTTTATTAGTGACTCAGCACGTGCTA,0.65
TTAGATTCCAGTTTCGACTAGTGCTAG,7.71

# Sample 4
# Target: Protein C-ets-1 (ETS1, Homo sapiens, UniProt P14921, residues 1-441, Y397A, full length assumed)
# Technique: protein-binding microarray
# Molecule type: double-stranded DNA, one strand shown
# Sample: in vitro
# Concentration: not given
# Setting: k-mer, scored over probes, only values ≥0.25
# Reading: higher = stronger binding
# Target sequence (chain): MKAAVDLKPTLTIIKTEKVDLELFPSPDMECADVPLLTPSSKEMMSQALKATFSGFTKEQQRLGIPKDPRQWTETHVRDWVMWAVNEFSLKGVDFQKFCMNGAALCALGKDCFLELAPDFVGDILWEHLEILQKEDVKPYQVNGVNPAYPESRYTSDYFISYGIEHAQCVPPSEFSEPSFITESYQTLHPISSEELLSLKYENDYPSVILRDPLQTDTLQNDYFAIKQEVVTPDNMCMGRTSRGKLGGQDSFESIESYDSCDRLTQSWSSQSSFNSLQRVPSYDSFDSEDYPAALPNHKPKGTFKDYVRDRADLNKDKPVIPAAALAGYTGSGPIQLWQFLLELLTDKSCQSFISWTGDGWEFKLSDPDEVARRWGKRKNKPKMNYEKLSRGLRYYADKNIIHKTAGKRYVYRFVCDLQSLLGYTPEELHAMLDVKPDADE
Sequence,E-score
ATACTTCC,0.289
CGGGTATA,0.32
CGCTTCCG,0.409
CGAACAAA,0.29
TCGACAAA,0.326
ACATGCCA,0.261
GTACAAAA,0.29
ATTGTCAA,0.415
CGTACAAA,0.273
CATCCGGC,0.435
CCGCCACA,0.281
GCGCCAAA,0.317
TACAAAAA,0.262
ACCCGGAA,0.274
AAGTGCCA,0.269
GCCATATA,0.277
CAAATATG,0.251
ACGACAAC,0.329
CGAATGAC,0.263
GTACGTAC,0.274
CAATTGCC,0.331
ATTTGTTG,0.284
ACGACAAA,0.415
ACAAACCC,0.272
GTCAAATA,0.301

# Sample 5
# Target: RNA binding protein fox-1 homolog 2, RRM domain, GST-SBP tag (RBFOX2, Homo sapiens, UniProt O43251-10, residues 100-194)
# Technique: RNA Bind-n-Seq
# Molecule type: RNA
# Sample: in vitro
# Concentration: 365 nM
# Setting: natural RNA segment, single round, ends assumed
# Baseline: no-protein control
# Reading: higher = stronger binding
# All sequences stand within: GGGAGUUCUACAGUCCGACGAUC … UGGAAUUCUCGGGUGCCAA
# Construct (chain): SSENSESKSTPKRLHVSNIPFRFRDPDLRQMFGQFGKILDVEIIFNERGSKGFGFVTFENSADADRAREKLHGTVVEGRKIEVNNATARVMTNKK
Sequence,RBNS enrichment (R)
AAAAAAAAUGUUUUUAAAGGCUCUCAACCACUGUGGAGGCAGCAUAGGGUGACAGCAACCAAGGAUUAAGUAGUCAGUACACCAAGUUCUGGUCUGCUCAUGCUUCAUUG,0.613
UGGAAUGACCAGAGAGCGAGCUGCCUUACCUCCCUACAUUCCAAGUCAGGACCAGCACAGGACUAACAACUCUGGUCUUAACAGCCUCCUCCUUCCCAUGUCCCUUUCAC,0.271
GGGUUGGGACUGUGGAGGCGGCACCCUCUUUAUCCCCUGCUAUCACAGAUGAUCUGUUCACUUGAAGGUGAUUUUUAUCUUGUAGUCAGUGUUACAAGAAAAGGCUGGAA,0.441
AUUUUUUUUCUACAUUGAAAAUAGAAACUGCUUCCUUUCUUCUUUCCAGUCAGCUAUUGGUCUUUCCAGCUGUUAUAAUCUAAAGUAUUCUUAUGAUCUGUGUAAGCUCU,0.528
UCCUGAAACGGGCAGAGAUGAUGAACAGAAGUGUAUGUAAAUACAGCAGCUAGUGGGAGAGCACCAGUUGGGCCUAAUCCUGCCUCAUCAUUCUUGGCAGGAAUCUGCAA,0.421
UGUCUUUAUUUAAAAUGAUGAAUCUAGUCUGAAUCAGCUGUUAUUCCAAGCUAUCAUGCUUAAGCUAUGUCAACAGCAUUUAUUUGUACUAAUGCUAAUAUUUCCAUCAA,0.593
AAAACUGAGAACUAACAUUAAAAAAAUUAAAUUUAGAAUAAGAAUGAUUUCUUUAAUUUGUCCUUUUUUUCUUUGGUCUAAAACAUUAUUAAAUUUUUGUAAAUAUUUUG,1.95
AUUAUUGGGCUUGCAGAGUUCCCUUAUUCUGGGGCUACAAUGCUUUUAUCGUUCCAAGCUUCAUCUUAGCUUCAGAACAAACUGUUAAAUCAUGAUUUUGCAGAACCUUU,0.415
AAAGAAAAGUUGAUGAUAGAUUGCCUUCACCCUCACAGCGCACAAAUAAAGCUACGAUGCCAACUUUCAGAUGCAAGAAUGAAGACACUGUGUGGGUAGGGCACUGAGCU,0.538
UGGCUGGCCUAAUCCCCAUGAUGAUUCCAGAAUAAUCUUGCAAAUUGGAUCAUGGCAGGUGCUUGUUCAAAGCCCUUUCUUGUUGCCUCUGCCAUCUGGGUGAAGUCUAG,0.303
CCAUUUUGUUUUAUACAAAAAUGGGAAAAAAAAAAAAGAAAUUAUAUAAAGUUCCUAGAGUCGGUGUCUUAUUAGAGGAUUUAAAUACUGGGACUGGAAGUAUCUAACAC,0.903
GCUCAUCUCCGCUUUUUAGGGUCAGAGGAACACAAGCUCAUGUUCUGAGUGAAGGGCGUACACUGGCACCUGGUGUUGCCUAGAUCCCCCAUCUCCUCCUUCCAGCCAGG,0.291

# Excerpt of the above (sample 4):
Sequence,E-score
CGTACAAA,0.273
CATCCGGC,0.435
CCGCCACA,0.281
GCGCCAAA,0.317
TACAAAAA,0.262
